Results gathered from unrelated publications.
Each numbered part is a random draw from the data of one study; scales do not carry over between parts.
UniProt Q14004, sequence (whole entry, looked up): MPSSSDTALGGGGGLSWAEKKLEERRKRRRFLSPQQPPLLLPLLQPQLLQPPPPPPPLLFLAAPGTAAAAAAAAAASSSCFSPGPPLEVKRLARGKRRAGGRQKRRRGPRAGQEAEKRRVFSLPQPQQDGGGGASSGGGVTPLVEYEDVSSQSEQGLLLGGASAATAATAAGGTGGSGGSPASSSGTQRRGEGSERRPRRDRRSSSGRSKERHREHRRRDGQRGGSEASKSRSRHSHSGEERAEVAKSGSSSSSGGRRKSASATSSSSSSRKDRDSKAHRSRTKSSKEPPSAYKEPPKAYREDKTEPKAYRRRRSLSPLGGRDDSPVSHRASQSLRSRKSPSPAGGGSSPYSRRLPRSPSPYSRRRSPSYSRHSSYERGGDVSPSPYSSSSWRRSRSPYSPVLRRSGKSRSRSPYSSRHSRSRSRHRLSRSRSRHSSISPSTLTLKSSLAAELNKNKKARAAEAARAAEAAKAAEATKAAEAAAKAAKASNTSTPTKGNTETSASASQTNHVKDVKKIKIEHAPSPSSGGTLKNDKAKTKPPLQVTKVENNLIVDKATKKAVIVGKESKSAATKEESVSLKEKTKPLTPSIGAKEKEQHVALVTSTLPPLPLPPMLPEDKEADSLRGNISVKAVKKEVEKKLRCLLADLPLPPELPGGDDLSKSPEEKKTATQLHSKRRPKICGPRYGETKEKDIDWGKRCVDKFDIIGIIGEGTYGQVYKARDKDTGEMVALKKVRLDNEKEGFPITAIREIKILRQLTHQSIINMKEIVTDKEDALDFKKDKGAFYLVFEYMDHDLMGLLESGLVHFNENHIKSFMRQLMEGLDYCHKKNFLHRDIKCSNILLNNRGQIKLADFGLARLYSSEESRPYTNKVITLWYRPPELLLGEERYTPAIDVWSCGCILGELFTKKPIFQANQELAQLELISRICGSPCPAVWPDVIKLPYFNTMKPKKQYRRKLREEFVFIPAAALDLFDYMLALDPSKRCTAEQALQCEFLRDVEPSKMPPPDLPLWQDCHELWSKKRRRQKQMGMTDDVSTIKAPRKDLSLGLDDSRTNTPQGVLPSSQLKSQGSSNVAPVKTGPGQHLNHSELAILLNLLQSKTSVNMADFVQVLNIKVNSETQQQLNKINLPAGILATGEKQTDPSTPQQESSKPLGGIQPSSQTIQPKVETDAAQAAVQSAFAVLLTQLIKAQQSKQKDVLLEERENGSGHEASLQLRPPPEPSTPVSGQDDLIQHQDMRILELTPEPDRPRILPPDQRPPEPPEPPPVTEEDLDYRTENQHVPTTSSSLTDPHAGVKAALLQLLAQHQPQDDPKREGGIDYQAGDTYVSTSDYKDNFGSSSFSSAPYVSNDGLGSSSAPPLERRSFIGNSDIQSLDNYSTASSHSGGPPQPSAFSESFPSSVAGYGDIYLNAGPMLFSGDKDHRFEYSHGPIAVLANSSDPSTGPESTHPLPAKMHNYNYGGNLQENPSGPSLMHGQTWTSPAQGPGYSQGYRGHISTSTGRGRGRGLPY
UniProt Q13233, sequence (whole entry, looked up): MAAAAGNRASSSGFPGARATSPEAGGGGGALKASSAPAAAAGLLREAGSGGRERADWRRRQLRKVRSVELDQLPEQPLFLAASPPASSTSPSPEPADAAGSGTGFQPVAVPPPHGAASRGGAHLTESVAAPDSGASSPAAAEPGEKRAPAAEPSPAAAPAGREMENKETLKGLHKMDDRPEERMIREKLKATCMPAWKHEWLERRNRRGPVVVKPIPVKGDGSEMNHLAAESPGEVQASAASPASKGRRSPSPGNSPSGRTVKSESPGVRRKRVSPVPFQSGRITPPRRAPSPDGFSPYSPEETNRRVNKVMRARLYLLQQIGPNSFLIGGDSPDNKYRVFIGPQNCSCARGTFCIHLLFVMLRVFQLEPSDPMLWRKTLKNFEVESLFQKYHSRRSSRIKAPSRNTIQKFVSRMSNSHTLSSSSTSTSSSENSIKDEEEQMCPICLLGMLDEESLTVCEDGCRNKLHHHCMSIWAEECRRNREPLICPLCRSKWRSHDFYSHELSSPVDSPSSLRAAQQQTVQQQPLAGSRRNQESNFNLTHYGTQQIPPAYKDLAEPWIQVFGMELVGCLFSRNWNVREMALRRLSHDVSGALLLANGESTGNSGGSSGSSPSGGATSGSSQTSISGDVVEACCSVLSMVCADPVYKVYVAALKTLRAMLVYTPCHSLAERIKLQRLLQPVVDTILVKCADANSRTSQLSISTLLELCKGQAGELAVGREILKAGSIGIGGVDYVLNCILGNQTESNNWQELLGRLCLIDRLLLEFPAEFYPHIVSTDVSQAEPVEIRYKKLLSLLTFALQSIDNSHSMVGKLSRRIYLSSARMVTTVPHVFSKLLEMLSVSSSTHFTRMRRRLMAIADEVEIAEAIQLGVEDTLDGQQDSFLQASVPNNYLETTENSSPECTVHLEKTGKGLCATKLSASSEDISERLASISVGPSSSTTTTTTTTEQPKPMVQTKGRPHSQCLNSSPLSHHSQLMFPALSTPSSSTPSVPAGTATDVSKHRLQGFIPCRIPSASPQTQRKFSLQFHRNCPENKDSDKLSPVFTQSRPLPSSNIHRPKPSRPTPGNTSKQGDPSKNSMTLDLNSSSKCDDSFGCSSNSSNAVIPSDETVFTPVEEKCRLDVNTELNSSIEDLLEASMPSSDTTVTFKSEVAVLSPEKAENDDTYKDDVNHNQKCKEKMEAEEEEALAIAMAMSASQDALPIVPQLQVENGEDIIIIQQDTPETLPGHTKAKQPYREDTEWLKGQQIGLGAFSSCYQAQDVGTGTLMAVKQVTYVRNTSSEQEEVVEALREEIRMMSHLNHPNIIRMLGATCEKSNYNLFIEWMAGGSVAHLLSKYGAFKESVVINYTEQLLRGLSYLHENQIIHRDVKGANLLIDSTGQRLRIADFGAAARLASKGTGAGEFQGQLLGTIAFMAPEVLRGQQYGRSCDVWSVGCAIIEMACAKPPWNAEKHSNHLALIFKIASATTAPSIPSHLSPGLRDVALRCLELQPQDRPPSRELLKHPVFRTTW
UniProt P53350, sequence (whole entry, looked up): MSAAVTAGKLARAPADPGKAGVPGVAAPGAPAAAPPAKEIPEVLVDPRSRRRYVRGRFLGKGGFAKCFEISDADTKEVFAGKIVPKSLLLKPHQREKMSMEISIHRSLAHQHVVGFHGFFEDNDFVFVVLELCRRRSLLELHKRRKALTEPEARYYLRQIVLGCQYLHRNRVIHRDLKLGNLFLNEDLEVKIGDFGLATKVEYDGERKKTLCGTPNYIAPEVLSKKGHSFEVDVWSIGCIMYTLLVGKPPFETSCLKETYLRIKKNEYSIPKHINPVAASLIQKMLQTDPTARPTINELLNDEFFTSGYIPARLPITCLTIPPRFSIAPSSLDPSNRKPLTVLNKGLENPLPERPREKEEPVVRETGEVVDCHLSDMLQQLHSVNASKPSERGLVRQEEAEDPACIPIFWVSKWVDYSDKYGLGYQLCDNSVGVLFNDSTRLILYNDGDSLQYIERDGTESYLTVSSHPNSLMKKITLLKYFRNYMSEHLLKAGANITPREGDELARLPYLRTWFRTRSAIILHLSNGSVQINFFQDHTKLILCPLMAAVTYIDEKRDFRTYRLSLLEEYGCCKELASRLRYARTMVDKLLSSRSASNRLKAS
UniProt Q15831, sequence (whole entry, looked up): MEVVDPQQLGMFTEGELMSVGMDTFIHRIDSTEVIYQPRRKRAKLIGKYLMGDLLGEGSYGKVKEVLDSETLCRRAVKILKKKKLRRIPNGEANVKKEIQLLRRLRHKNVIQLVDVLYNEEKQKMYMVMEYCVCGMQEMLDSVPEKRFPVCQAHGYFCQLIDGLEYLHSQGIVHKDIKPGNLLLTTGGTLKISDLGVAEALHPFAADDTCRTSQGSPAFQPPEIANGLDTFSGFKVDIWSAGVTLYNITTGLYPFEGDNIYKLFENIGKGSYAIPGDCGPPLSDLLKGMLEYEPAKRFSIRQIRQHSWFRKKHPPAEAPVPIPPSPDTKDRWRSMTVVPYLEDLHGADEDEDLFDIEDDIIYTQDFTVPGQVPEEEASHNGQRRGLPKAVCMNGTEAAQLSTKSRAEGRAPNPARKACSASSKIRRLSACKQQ
UniProt Q9UQB9, sequence (whole entry, looked up): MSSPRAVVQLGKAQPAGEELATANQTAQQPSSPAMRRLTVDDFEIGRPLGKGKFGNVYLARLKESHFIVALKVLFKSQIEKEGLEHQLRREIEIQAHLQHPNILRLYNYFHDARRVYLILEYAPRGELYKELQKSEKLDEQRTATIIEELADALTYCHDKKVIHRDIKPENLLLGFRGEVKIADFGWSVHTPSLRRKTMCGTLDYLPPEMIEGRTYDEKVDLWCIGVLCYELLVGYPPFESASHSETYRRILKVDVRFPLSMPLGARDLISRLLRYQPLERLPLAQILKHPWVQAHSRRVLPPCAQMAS

Study 1 — concentration: 1 µM; endpoint: remaining binding
SMILES: CN1CCN(c2cnc3c(C4CCN(C(=O)c5ccc(OC(F)(F)F)cc5N)CC4)ncnc3c2)CC1
CDK13 (Homo sapiens, UniProt Q14004); cell-free assay, competition with immobilised ligand: 62%
CSNK1A1L (Homo sapiens, UniProt Q8N752); cell-free assay, competition with immobilised ligand: 100%
Ribosomal protein S6 kinase alpha-2, N-terminal kinase domain (RPS6KA2, Homo sapiens, UniProt Q15349); cell-free assay, competition with immobilised ligand: 100%
FLT3 (Homo sapiens, UniProt P36888, D835V/ITD); cell-free assay, competition with immobilised ligand: 93%
Non-receptor tyrosine-protein kinase TYK2, JH1 (TYK2, Homo sapiens, UniProt P29597); cell-free assay, competition with immobilised ligand: 93%
CHUK (Homo sapiens, UniProt O15111); cell-free assay, competition with immobilised ligand: 100%
CDK19 (Homo sapiens, UniProt Q9BWU1); competition binding: 79%
MYLK4 (Homo sapiens, UniProt Q86YV6); cell-free assay, competition with immobilised ligand: 100%
Aurora kinase C (AURKC, Homo sapiens, UniProt Q9UQB9); cell-free assay, competition with immobilised ligand: 67%
BMP2K (Homo sapiens, UniProt Q9NSY1); cell-free assay, competition with immobilised ligand: 97%
EPHA7 (Homo sapiens, UniProt Q15375); cell-free assay, competition with immobilised ligand: 100%
MYLK2 (Homo sapiens, UniProt Q9H1R3); cell-free assay, competition with immobilised ligand: 85%
BMPR1B (Homo sapiens, UniProt O00238); cell-free assay, competition with immobilised ligand: 100%
SBK1 (Homo sapiens, UniProt Q52WX2); cell-free assay, competition with immobilised ligand: 100%
STK11 (Homo sapiens, UniProt Q15831); cell-free assay, competition with immobilised ligand: 100%
PLK1 (Homo sapiens, UniProt P53350); cell-free assay, competition with immobilised ligand: 93%
PRKD3 (Homo sapiens, UniProt O94806); cell-free assay, competition with immobilised ligand: 100%
Receptor-type tyrosine-protein kinase FLT3, autoinhibited (FLT3, Homo sapiens, UniProt P36888); cell-free assay, competition with immobilised ligand: 100%
MAP3K1 (Homo sapiens, UniProt Q13233); cell-free assay, competition with immobilised ligand: 100%
MAP3K19 (Homo sapiens, UniProt Q56UN5); cell-free assay, competition with immobilised ligand: 83%
MAP3K4 (Homo sapiens, UniProt Q9Y6R4); cell-free assay, competition with immobilised ligand: 95%

Study 2 — species: human; sample: microsomes or S9; concentration: 2 µM; time: 0.5 h; endpoint: remaining compound
C[C@@H]1[C@@H](CO)[C@](O)(C(F)(F)F)c2cc([N+](=O)[O-])cn21: > 99.9%
Fc1ccccc1C(c1nnc(-c2ccccc2)o1)N1CCc2ccccc2C1 (centres unmarked): 16.8%
COc1cccc(-c2nc3cnccn3c2NCCC(=O)Nc2ccc3c(c2)OCCO3)c1: 2.39%

Study 3 — organism: Sarcocystis neurona; observed: parasite growth; concentration: 10 µM; setting: secondary screen; endpoint: inhibition
Cc1ccnc2c1NC(=O)c1cccnc1N2C1CC1: -37.7%
NCc1ccc(S(N)(=O)=O)cc1: -45.7%
O=C1c2c(O)ccc(O)c2C(=O)c2c(NCCNCCO)ccc(NCCNCCO)c21: 44.7%

Study 4 — method: protein-binding microarray; form: hairpin DNA; sample: in vitro; concentration: not given; reference: not given; reading: higher = stronger binding; endpoint: median fluorescence; constant ends, left off below: GAGGCCA … TGGCCTCACACTC
Target: Protein C-ets-1, full length (ETS1, Homo sapiens, UniProt P14921, residues 1-441)
UniProt P14921, sequence (whole entry, looked up): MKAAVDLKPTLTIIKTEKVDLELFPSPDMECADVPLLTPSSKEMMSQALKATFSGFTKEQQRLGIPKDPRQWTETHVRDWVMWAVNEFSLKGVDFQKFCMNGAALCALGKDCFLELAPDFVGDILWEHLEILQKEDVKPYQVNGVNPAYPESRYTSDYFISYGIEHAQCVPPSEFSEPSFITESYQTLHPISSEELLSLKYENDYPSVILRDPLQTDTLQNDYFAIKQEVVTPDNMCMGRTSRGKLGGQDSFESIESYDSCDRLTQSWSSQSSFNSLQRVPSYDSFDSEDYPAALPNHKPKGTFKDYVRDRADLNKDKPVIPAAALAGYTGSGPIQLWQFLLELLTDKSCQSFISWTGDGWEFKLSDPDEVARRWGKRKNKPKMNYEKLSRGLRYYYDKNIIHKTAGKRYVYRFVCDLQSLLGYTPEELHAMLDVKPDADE
Setting: whole hairpin DNA, median over replicate spots
GCCGGACGTTGCCTCCTGGCAACGTCCGGC (5mC at 14 30): 2350 a.u.
GTCGGAAGTTGCCTCCTGGCAACTTCCGAC (5mC at 33): 1610 a.u.
GTCGGCGGTTGCCTCCTGGCAACCGCCGAC (5mC at 13 31): 547 a.u.
CGCGGAAGTTGCCTCCTGGCAACTTCCGCG (5mC at 8): 3290 a.u.
GCCGGAAGGTGCCTCCTGGCACCTTCCGGC (5mC at 29): 2750 a.u.
GTCCGAAGTTGCCTCCTGGCAACTTCGGAC (5mC at 33): 512 a.u.
GTCGGACGTTGCCTCCTGGCAACGTCCGAC: 738 a.u.
GTAGGAAGTTGCCTCCTGGCAACTTCCTAC: 2040 a.u.

Study 5 — method: RNAcompete; form: RNA; sample: in vitro; concentration: 20 nM; setting: 7-mer, probes averaged, single round; reference: mean of 7-mers; reading: higher = stronger binding; endpoint: 7-mer Z-score
Target: PABPC1L2, full length, GST fusion (mouse, UniProt A0ABA7IW68)
Construct (chain): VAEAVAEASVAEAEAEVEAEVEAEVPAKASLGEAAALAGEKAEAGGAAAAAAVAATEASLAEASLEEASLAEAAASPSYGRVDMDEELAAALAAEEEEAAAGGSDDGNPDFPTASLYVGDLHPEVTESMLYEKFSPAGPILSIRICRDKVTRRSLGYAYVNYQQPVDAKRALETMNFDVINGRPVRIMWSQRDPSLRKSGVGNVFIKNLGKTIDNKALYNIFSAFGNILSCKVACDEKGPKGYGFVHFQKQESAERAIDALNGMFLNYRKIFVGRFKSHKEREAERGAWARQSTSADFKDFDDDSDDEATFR
UCUAGUA: -0.213
ACACUUU: -0.0663
GACAUGG: 0.0768
AAGCCGA: 0.0207
CUAGUCA: -0.411
UUAAUCC: -0.289
CAGCAAU: -0.146
GGUAGUA: -0.0826

Single results of other studies
CCCCC(CC)COC(=O)CC(C(=O)OCC(CC)CCCC)S(=O)(=O)O (centres unmarked) — viability (A-375; 100 µM, 36 h): 1.13%

Excerpt of the above (study 1):
SBK1 (Homo sapiens, UniProt Q52WX2); cell-free assay, competition with immobilised ligand: 100%
Non-receptor tyrosine-protein kinase TYK2, JH1 (TYK2, Homo sapiens, UniProt P29597); cell-free assay, competition with immobilised ligand: 93%
